Measured values from different studies.
Compare with care: the assays were run in different laboratories. “And” joins repeats or separate records; there may be more than shown. ± gives the spread as reported.

SMILES	test	test system	conditions	scale	measurement	result
COc1cnc2cccc(N3CCc4c(cc(Cn5ccnc5)cc4-c4cn(C)nc4C(F)(F)F)C3=O)c2c1	–	BALB/c nude mice, MV4-11 xenograft	intraperitoneal, 100 mg/kg, day 10	–	tumour volume	163 mm3 and 106 mm3 and 155 mm3 and 158 mm3 and 142 mm3
COc1ccc(C(=O)CCc2cc(C(CCc3ccc(O)cc3OC)c3ccc(O)cc3)c(O)cc2OC)cc1 (racemic)	–	human blood	0.3 µM, with: A23187	–	4-HDHA level	31 ± 8 pg/mL
O=S(=O)(NCc1ccncc1)c1ccc(C2CCCCC2)cc1	Y maze	CK-p25 mice	ip, 0.3 mg/kg daily, 6 wk	above chance	novel arm preference	18.7 ± 11.7%
COc1cc(N2CCN(C(=O)C3CCCN3)CC2)ccc1Nc1ncc(Cl)c(Nc2ccccc2P(C)(C)=O)n1 (stereo not shown)	–	nude mice, NCI-H3122 xenograft	oral, 25 mg/kg every two days, day 13	–	tumour volume	189 mm3 and 523 mm3 and 241 mm3 and 51.7 mm3 and 279 mm3
COc1cc(O)ccc1CCC(c1ccc(O)cc1)c1cc2c(c(C)c1O)OC(c1ccc(O)cc1)CC2 (mixture of isomers)	item: 12-HETE	human whole blood	0.3 µM, with: Escherichia coli	–	amount	29600 ± 5020 pg/mL blood
CN1CCC[C@]1(C)/C=C/S(=O)(=O)NC(=O)Nc1c2c(cc3c1CCC3)CCC2	–	human, whole blood ex vivo	400 mg single dose, 3 h, single ascending dose, with: LPS and ATP	–	IL-1β inhibition	99.5%
CC[C@H]1CN([C@@H](CC)c2ccc(C(F)(F)F)cc2)[C@H](CC)CN1c1nc(=O)n(C)c2ccc(C#N)nc12	T cell priming, item: IL-2	BMDC, Mus musculus	96 h, OVA cross-presentation, with: OT-1 CD8+ T cells, OVA	–	EC50	22 nM
CC(=O)[O-].O.O.O.O.[Mn+2].[O-]c1ccc(Br)cc1C=NCCN1CCOCC1	hydroxyl radical scavenging	–	200 µM	–	inhibition	44.7%
COC1CN([C@H]2CC[C@H]([C@@]3(C)Oc4c(Cl)cc(C(=O)NCc5c(SC)cc(C)[nH]c5=O)c(C)c4O3)CC2)C1	RNA-seq, item: IL15	human, whole blood	dose not given, 24 h	baseline: pretreatment baseline	log2 fold change	2.29
COc1ccc2c(c1)c(CC(=O)[O-])c(C)n2C(=O)c1ccc(Cl)cc1.COc1ccc2c(c1)c(CC(=O)[O-])c(C)n2C(=O)c1ccc(Cl)cc1.[Co+2].c1c[nH]cn1.c1c[nH]cn1	ABTS	DMSO	concentration not given	–	ABTS radical cation scavenging	95.53 ± 0.62%
